Measurements collected from several papers.
Each numbered part is a random draw from the data of one study; scales do not carry over between parts.

Block 1
Target: Sal-like protein 4, full length isoform A (SALL4, Homo sapiens, UniProt Q9UJQ4, residues 1-1053)
UniProt Q9UJQ4, sequence (whole entry, looked up): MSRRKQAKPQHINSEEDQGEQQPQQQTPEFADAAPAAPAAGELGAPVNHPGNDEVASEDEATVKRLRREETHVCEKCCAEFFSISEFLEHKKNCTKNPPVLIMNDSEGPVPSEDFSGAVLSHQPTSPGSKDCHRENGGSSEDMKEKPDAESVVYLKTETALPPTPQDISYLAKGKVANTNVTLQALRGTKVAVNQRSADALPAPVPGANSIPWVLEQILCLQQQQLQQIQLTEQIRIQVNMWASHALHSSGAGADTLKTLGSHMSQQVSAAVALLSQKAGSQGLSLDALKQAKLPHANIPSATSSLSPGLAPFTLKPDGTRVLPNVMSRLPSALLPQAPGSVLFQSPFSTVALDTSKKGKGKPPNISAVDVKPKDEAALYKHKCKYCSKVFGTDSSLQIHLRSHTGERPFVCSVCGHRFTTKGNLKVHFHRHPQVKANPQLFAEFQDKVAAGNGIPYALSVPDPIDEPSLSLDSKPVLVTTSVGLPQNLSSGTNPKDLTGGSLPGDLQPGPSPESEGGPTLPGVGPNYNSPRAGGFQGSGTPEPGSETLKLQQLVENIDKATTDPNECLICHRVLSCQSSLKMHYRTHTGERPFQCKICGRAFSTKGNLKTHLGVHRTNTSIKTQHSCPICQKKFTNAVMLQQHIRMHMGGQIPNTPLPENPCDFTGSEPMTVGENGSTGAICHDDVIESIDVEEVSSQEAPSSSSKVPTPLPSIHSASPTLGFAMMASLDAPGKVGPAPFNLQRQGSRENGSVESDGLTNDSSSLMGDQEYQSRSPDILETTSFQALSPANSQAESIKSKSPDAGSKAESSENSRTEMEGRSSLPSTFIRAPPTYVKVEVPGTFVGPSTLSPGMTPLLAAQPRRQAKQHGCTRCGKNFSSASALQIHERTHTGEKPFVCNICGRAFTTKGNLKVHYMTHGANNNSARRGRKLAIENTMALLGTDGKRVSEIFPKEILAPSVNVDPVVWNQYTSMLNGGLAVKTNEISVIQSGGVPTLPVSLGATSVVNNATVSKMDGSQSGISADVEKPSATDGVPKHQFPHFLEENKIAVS
Technique: universal PBM
Molecule type: double-stranded DNA, one strand shown
Medium: in vitro
Tested at: 600 nM
Notes: 8-mer, flanks averaged, mean of replicates
Direction: higher = stronger binding
Measurement: E-score
Strand = AGGCTCCA; value = -0.215
Strand = CAACCAAC; value = -0.134
Strand = GCAGGGCA; value = -0.184
Strand = CCTCCCGC; value = -0.326
Strand = GAGTAAGA; value = 0.135
Strand = CGCAATTC; value = 0.0193
Strand = ATCCTTCG; value = -0.0841

Block 2
Target: RNA binding protein fox-1 homolog 2, RRM domain, GST-SBP tag (RBFOX2, Homo sapiens, UniProt O43251-10, residues 100-194)
Technique: RNA Bind-n-Seq
Molecule type: RNA
Medium: in vitro
Tested at: 365 nM
Notes: natural RNA segment, single round, ends assumed
Relative to: no-protein control
Direction: higher = stronger binding
Measurement: RBNS enrichment (R)
Shared flanks, not repeated: GGGAGUUCUACAGUCCGACGAUC … UGGAAUUCUCGGGUGCCAA
Construct (chain): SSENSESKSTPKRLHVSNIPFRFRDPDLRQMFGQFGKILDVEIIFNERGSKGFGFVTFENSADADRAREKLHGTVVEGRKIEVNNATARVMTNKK
Strand = GGUGCUGACGCUGCCACUGCCCUGUUGUUCAUUGAGAAUGAUUGUUAAAUGACACUCUUCCUUUAGAAUAUAACGGAUCAGUACUCAUGUUUAAUUGCCAUGCUUAAUAA; value = 0.2
Strand = AGCAUUGAAGCUUUUCACCAAAAGAAGUCUCUCCAAAAUAAAUCUUUUGCAGCAAAGUGAUAUUUAUUGAGUUAUGUGGAAAAGAUGGCUUGUAUUUUUCAGAUUAUUAC; value = 1.22
Strand = CAGCGUCUGAGACUUGAGAACUGAGACACCGUGUUCUUCAGCACGCGUCCUGUAGCUAGAGGCUCGAACCUACCAGCCCGCGACCGCCACCCACCCAGCGGUAUUGGAAG; value = 0.519
Strand = ACUACUUUCAGCUUCCUGCUCCACCCCUGGCUUGCAAGCCCUCUUUUUGGCCCCUAUUGAGGAUGAAAUGUCUCUCAUUUAGUAUAAACAGUAACAGCCCACGGCAGUGU; value = 0.396
Strand = AGAGCCUGUGAUAGUUGCUGUGGGCAGCCAGUUCCUGGGGCUUCCUCUUGGGCCCCCUGCACUCGGUCUCCCCUGGAGUUUCUGAAUUCUCUCACCCAAGUCCCUACACA; value = 0.431
Strand = CCUUCAUUCUACAUAGACAUCAUUGGUUUUGGAGUUUAAAAAAAAAAGUCACCUUUUUGCUGAUGAAAAGAACAUAUGUAUAAUAUAGUUGAACUCGAAGACAACUUAAA; value = 0.331

Block 3
Target: Interferon regulatory factor 5, full length, phosphomimetic (IRF5, Homo sapiens, UniProt Q13568-2, residues 1-514, S451D/S453D/S456D/S462D)
Technique: protein-binding microarray
Molecule type: double-stranded DNA, one strand shown
Medium: in vitro
Tested at: 940 nM top
Notes: 60-bp whole probe
Together with: salmon DNA 0.4 mg/ml
Relative to: random background probes
Direction: higher = stronger binding
Measurement: fitted relative affinity
Shared flanks, not repeated: GCCTAGCAC … GTCTTGATTCGCTTGACGCTGCTG
Strand = ATAGATTTCGGGACTGGATTAGTGCTA; value = 0.326 z-score
Strand = TAGTTTTCAATTTTTGCATCGTGCTAG; value = 1.08 z-score
Strand = TTAGGTCTCGGTTTCAGTTAGTGCTAG; value = 6.39 z-score
Strand = TTAGGAATGGGGTTTCGGTTAGTGCTA; value = 5.81 z-score
Strand = TCATCTTCCTTCATGGCACTGTGCTAG; value = 1.07 z-score
Strand = TTAGGTTTCGGGACTGGCTTAGTGCTA; value = 7.36 z-score
Strand = TTCGATATCAGACTGGATTAGTGCTAG; value = -0.273 z-score
Strand = TTAGATATCGGGTTTAGATTAGTGCTA; value = 0.469 z-score

Mixed results
Substance = PhoQ, residues 284 288 289 292 302 303 HSSMNL; target = PhoP, residues 12 14 15 18 19 YHFSH (Escherichia coli, UniProt P23836); test = Sort-seq, item: YFP reporter; test system = E. coli; setting = PhoQ-PhoP variant library, together with: 10 µM Mg2+; scale = relative to: high Mg2+ state, higher = stronger signaling; measurement = fold induction; value = 9.91

Repeated from above (block 3):
Strand = ATAGATTTCGGGACTGGATTAGTGCTA; value = 0.326 z-score
Strand = TAGTTTTCAATTTTTGCATCGTGCTAG; value = 1.08 z-score
